Measurements of several laboratories.
pIC50: −log10 of the molar value.
UniProt O14733, sequence (whole entry, looked up): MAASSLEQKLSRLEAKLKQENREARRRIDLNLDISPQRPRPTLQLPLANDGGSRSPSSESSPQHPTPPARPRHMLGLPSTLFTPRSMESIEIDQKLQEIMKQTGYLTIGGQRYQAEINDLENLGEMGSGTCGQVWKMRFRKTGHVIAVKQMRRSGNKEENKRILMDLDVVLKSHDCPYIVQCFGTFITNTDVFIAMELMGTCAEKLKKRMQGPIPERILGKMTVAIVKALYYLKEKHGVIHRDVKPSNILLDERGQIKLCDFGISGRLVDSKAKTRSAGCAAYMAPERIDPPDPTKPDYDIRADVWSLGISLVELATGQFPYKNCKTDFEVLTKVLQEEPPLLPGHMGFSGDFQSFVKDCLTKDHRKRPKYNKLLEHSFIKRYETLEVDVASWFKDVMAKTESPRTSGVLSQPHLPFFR
UniProt O14976, sequence (whole entry, looked up): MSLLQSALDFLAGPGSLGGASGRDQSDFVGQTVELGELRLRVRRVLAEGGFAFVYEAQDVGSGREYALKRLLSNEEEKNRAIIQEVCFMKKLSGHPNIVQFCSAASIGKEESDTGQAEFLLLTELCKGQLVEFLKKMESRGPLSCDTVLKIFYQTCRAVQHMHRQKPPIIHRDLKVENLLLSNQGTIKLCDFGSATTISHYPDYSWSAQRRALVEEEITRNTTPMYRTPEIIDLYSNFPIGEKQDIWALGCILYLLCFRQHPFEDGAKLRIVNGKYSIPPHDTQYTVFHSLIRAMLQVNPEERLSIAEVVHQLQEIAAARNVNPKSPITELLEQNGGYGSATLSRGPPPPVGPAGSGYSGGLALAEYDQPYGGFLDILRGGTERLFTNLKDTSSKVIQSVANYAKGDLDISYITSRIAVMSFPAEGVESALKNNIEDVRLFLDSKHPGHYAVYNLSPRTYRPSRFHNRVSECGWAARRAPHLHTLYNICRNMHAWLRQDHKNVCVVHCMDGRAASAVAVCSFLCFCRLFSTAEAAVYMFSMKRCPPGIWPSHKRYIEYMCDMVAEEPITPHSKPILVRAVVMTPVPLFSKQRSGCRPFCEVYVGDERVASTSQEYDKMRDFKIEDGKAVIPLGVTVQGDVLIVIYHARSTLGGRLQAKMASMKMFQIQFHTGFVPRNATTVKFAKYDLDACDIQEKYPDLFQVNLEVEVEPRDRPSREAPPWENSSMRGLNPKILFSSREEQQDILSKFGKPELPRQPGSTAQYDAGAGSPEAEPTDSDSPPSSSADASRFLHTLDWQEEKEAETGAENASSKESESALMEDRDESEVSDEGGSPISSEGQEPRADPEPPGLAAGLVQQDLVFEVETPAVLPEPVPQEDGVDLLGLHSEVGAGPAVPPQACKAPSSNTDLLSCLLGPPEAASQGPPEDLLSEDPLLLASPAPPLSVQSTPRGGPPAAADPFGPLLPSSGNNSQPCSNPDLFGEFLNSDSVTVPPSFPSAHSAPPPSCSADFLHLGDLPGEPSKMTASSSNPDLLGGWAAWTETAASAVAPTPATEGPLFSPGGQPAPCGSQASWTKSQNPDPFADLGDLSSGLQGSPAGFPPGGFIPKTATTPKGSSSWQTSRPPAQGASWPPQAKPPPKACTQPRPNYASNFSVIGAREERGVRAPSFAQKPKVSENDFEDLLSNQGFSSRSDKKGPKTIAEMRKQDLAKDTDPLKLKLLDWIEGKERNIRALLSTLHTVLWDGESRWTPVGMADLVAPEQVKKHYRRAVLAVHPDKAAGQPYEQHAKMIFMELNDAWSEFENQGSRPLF
UniProt Q15746, sequence (whole entry, looked up): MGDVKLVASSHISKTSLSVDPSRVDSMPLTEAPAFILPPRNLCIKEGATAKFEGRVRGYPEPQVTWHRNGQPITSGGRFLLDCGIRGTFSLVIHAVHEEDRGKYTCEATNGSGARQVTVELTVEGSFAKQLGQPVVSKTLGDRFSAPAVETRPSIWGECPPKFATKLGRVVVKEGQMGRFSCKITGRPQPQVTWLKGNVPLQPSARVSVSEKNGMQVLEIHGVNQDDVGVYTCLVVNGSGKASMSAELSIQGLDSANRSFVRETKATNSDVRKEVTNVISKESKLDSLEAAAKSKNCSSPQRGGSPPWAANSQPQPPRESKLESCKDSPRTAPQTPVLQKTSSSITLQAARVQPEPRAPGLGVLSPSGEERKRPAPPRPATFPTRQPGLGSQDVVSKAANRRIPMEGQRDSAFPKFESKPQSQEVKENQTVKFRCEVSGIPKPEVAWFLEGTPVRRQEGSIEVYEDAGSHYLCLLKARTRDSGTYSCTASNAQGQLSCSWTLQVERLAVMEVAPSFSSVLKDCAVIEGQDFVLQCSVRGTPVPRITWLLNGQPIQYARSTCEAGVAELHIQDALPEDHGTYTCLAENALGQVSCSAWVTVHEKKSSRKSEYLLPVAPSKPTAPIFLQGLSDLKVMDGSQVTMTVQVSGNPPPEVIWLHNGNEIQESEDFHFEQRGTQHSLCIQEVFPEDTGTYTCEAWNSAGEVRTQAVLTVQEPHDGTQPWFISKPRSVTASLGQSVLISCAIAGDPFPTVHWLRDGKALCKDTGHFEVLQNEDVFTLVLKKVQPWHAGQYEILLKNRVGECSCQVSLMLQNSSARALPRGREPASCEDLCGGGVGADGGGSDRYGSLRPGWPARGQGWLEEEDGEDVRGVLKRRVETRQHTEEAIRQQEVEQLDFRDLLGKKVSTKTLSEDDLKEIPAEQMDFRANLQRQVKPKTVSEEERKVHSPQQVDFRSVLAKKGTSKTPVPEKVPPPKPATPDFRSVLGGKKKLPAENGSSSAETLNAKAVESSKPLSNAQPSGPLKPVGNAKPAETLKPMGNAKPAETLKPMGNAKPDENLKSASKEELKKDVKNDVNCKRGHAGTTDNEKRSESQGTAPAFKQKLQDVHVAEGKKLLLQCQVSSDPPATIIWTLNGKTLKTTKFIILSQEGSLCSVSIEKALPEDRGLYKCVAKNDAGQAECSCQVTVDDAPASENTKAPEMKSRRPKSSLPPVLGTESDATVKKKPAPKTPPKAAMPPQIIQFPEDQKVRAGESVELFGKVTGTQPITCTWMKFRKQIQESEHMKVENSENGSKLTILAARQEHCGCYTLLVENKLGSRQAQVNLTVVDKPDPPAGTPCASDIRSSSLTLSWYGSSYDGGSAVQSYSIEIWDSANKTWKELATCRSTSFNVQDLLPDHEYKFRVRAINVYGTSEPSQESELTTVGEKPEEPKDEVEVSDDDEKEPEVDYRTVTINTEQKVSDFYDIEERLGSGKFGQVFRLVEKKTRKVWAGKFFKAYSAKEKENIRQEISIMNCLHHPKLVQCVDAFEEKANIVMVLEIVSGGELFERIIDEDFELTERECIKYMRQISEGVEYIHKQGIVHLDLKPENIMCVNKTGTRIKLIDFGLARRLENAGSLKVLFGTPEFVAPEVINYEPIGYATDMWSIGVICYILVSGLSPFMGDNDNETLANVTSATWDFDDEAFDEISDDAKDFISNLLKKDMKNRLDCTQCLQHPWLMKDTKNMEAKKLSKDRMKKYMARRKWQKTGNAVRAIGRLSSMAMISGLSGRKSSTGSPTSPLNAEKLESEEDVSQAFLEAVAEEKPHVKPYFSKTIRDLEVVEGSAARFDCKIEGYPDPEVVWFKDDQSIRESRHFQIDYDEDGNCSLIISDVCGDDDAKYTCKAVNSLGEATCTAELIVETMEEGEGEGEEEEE
UniProt O14936, sequence (whole entry, looked up): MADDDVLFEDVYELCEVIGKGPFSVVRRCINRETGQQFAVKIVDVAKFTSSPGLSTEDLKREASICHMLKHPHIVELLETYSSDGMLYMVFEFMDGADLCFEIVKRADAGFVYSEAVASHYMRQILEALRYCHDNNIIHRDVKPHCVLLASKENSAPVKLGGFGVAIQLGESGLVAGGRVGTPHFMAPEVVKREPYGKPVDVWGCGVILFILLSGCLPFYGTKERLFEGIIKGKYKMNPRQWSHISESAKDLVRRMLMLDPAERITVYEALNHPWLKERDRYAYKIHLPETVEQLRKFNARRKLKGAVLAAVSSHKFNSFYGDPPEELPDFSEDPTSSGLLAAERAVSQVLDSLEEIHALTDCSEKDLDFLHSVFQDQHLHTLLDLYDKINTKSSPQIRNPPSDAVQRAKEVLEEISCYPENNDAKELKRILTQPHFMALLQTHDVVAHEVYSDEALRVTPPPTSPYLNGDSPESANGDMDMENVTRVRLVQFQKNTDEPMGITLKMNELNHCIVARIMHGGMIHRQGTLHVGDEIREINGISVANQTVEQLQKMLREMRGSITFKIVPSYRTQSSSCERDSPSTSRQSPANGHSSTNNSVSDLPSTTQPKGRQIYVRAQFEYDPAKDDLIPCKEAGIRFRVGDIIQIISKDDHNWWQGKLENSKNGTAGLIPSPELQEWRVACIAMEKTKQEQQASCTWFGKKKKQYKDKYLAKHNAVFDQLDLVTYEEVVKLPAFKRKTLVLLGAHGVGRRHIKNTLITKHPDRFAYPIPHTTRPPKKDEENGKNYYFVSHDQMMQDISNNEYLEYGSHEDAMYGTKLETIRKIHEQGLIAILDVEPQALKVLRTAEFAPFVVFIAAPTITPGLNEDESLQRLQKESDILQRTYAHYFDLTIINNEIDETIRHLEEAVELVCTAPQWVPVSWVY

| SMILES | target or system | assay | conditions | endpoint | result |
| --- | --- | --- | --- | --- | --- |
| COc1cc(C(=O)c2nc(-c3cccc4occc34)c[nH]2)cc(OC)c1OC | M14 | cell growth or viability, MTS | 72 h | pIC50 | 7.13 |
| Nc1c(C(=O)NCc2ccccc2)sc2ncccc12 | HepG2 | cell growth or viability | 72 h | pIC50 | < 4.00 |
| COc1ncccc1-c1cnn2ccc(N3CCN(C(=O)OC(C)C)CC3)nc12 | GAK (Homo sapiens, UniProt O14976) | binding, competition with immobilised ligand | 1 µM | remaining binding | 42% |
| O=C1CCP(=[Se])(c2ccccc2)CC1 | HCT-116 | cell growth or viability, MTT | 72 h | pIC50 | < 4.00 |
| COc1cc(C(=O)c2nc(-c3ccc4ccccc4c3)c[nH]2)cc(OC)c1OC | A-375 | cell growth or viability, MTS | 72 h | pIC50 | 6.51 |
| Nc1c(C(=O)NCc2ccc(F)cc2)sc2ncccc12 | HepG2 | cell growth or viability | 72 h | pIC50 | < 4.00 |
| CS(=O)(=O)OCCN(CCBr)c1c(C(=O)NCCO)cc([N+](=O)[O-])cc1[N+](=O)[O-] | B-ALL | cell growth or viability | 48 h | pIC50 | 4.58 |
| COc1ccc(-c2cc(C(F)(F)F)c3cc(C(=O)NC(C)c4ccccc4)sc3n2)cc1 (stereo not drawn) | HepG2 | cell growth or viability | 72 h | pIC50 | < 4.00 |
| Cc1sc2c(c1C)C(c1ccc(Cl)cc1)=N[C@@H](CC(=O)OC(C)(C)C)c1nnc(C)n1-2 | SET-2 | cell growth or viability, ATP luminescence | – | pIC50 | 6.03 |
| COc1c(C)c2c(c(O)c1C/C=C(\C)CCC(=O)O)C(=O)OC2 | SK-BR-3 | cell growth or viability | – | pIC50 | 5.81 |
| CC(C)C[C@@H]1NC(=O)CNC(=O)[C@H](CC(N)=O)NC(=O)[C@H](CCCNC(=N)N)NC(=O)[C@H]([C@@H](C)O)NC(=O)[C@@H]2CSSC[C@@H]3NC(=O)[C@H]([C@@H](C)O)NC(=O)CNC(=O)CNC(=O)[C@H](C(C)C)NC(=O)[C@@H]4CSSC[C@H](NC(=O)[C@H]([C@@H](C)O)NC(=O)[C@H](CSSC[C@H](NC(=O)[C@H](C(C)C)NC(=O)[C@@H]5CCCN5C1=O)C(=O)NCC(=O)N[C@@H](CCC(=O)O)C(=O)N[C@@H]([C@@H](C)O)C(=O)N4)NC(=O)CNC(=O)[C@@H]1CCCN1C(=O)[C@H]([C@@H](C)O)NC(=O)[C@H](CC(N)=O)NC3=O)C(=O)N[C@@H](CO)C(=O)N[C@@H](Cc1c[nH]c3ccccc13)C(=O)N1CCC[C@H]1C(=O)N[C@@H](CCCCN)C(=O)N2 | Sf9 | cell growth or viability, MTT | 24 h | pIC50 | < 4.49 |
| Cc1nn(C)cc1-c1nc2c(N3CCN(Cc4ccc(Cl)cc4)CC3)c(Cl)cnc2[nH]1 | CASK (Homo sapiens, UniProt O14936) | binding, competition with immobilised ligand | 1 µM | remaining binding | 84% |
| N.N.[Cl][Pt][Cl] | MDA-MB-231 | cell growth or viability | 48 h, dark | pIC50 | 4.44 |
| COc1cc(C(=O)c2nc(-c3c[nH]c4cccc(C)c34)c[nH]2)cc(OC)c1OC | A-375 | cell growth or viability, MTS | 72 h | pIC50 | 6.83 |
| Nc1c(C(=O)Nc2ccccc2F)sc2nc(-c3ccccc3)cc(C(F)(F)F)c12 | HepG2 | cell growth or viability | 72 h | pIC50 | < 4.00 |
| COc1cc(C(=O)c2nc(-c3ccc4[nH]ccc4c3)c[nH]2)cc(OC)c1OC | A-375 | cell growth or viability, MTS | 72 h | pIC50 | 7.44 |
| O=C1[O][Pt]2([NH][C@@H]3CCCC[C@H]3[NH]2)[O]C1=O | PLC-PRF-5 | cell growth or viability, imaging | 72 h | pIC50 | 4.90 |
| N.N.[Cl][Pt][Cl] | KU812 | cell growth or viability, ATP luminescence | 72 h | pIC50 | 5.74 |
| COc1cc(C(=O)c2nc(-c3cccc4ncccc34)c[nH]2)cc(OC)c1OC | A-375 | cell growth or viability, MTS | 72 h | pIC50 | < 6.00 |
| Nc1ncc(-c2nc(N3CCOCC3)nc(N3CCOCC3)n2)c(C(F)F)n1 | MAP2K7 (Homo sapiens, UniProt O14733) | binding, competition with immobilised ligand | 10 µM | remaining binding | 61% |
| COc1ccc(-c2cc(C(F)(F)F)c3c(N)c(C(=O)Nc4cccc(C)c4C)sc3n2)cc1 | HepG2 | cell growth or viability | 72 h | pIC50 | 4.44 |
| COc1cc(C(=O)c2nc(-c3cccc4[nH]ccc34)c[nH]2)cc(OC)c1OC | A-375 | cell growth or viability, MTS | 72 h | pIC50 | 9.22 |
| N.N.[Cl][Pt][Cl] | A549 | cell growth or viability, MTT | – | pIC50 | 5.76 |
| Nc1c(C(=O)N2CCOCC2)sc2nc(-c3cccnc3)ccc12 | HepG2 | cell growth or viability | 72 h | pIC50 | < 4.00 |
| [2H]c1c([2H])c([C@]2([2H])CCCN2C(=O)C(C)(C)Oc2ccc3cn[nH]c3c2)c([2H])c([2H])c1C([2H])([2H])[2H] | MYLK (Homo sapiens, UniProt Q15746) | binding, competition with immobilised ligand | 1 µM | remaining binding | 77% |
| COc1cc(C(=O)c2nc(-c3c[nH]c4ccccc34)c[nH]2)cc(OC)c1OC | A-375 | cell growth or viability, MTS | 72 h | pIC50 | 7.50 |
| COc1ccc(-c2cc(C(F)(F)F)c3c(N)c(C(=O)NCC45CC6CC(CC(C6)C4)C5)sc3n2)cc1 | HepG2 | cell growth or viability | 72 h | pIC50 | < 4.00 |
| COc1cc(C(=O)c2nc(-c3cccc4[nH]ccc34)cn2C)cc(OC)c1OC | A-375 | cell growth or viability, MTS | 72 h | pIC50 | 6.81 |
| CN(C)C(=O)c1sc2ncccc2c1N | HepG2 | cell growth or viability | 72 h | pIC50 | < 4.00 |
| O=C1CCP(c2ccccc2)CC1 | HCT-116 | cell growth or viability, MTT | 72 h | pIC50 | < 4.00 |

For quick reference, copied from above:
| SMILES | target or system | assay | conditions | endpoint | result |
| --- | --- | --- | --- | --- | --- |
| COc1ccc(-c2cc(C(F)(F)F)c3cc(C(=O)NC(C)c4ccccc4)sc3n2)cc1 (stereo not drawn) | HepG2 | cell growth or viability | 72 h | pIC50 | < 4.00 |
| Cc1sc2c(c1C)C(c1ccc(Cl)cc1)=N[C@@H](CC(=O)OC(C)(C)C)c1nnc(C)n1-2 | SET-2 | cell growth or viability, ATP luminescence | – | pIC50 | 6.03 |
| COc1c(C)c2c(c(O)c1C/C=C(\C)CCC(=O)O)C(=O)OC2 | SK-BR-3 | cell growth or viability | – | pIC50 | 5.81 |
| CC(C)C[C@@H]1NC(=O)CNC(=O)[C@H](CC(N)=O)NC(=O)[C@H](CCCNC(=N)N)NC(=O)[C@H]([C@@H](C)O)NC(=O)[C@@H]2CSSC[C@@H]3NC(=O)[C@H]([C@@H](C)O)NC(=O)CNC(=O)CNC(=O)[C@H](C(C)C)NC(=O)[C@@H]4CSSC[C@H](NC(=O)[C@H]([C@@H](C)O)NC(=O)[C@H](CSSC[C@H](NC(=O)[C@H](C(C)C)NC(=O)[C@@H]5CCCN5C1=O)C(=O)NCC(=O)N[C@@H](CCC(=O)O)C(=O)N[C@@H]([C@@H](C)O)C(=O)N4)NC(=O)CNC(=O)[C@@H]1CCCN1C(=O)[C@H]([C@@H](C)O)NC(=O)[C@H](CC(N)=O)NC3=O)C(=O)N[C@@H](CO)C(=O)N[C@@H](Cc1c[nH]c3ccccc13)C(=O)N1CCC[C@H]1C(=O)N[C@@H](CCCCN)C(=O)N2 | Sf9 | cell growth or viability, MTT | 24 h | pIC50 | < 4.49 |
